Assay results from different studies.
Numbered parts are unrelated; each lists some results of a single study. Positions count from the first letter of the parent shown.

Block 1
Target: RNA binding protein fox-1 homolog 2, RRM domain, GST-SBP tag (RBFOX2, Homo sapiens, UniProt O43251-10, residues 100-194)
Technique: RNA Bind-n-Seq
Molecule type: RNA
Medium: in vitro
Tested at: 365 nM
Notes: natural RNA segment, single round, ends assumed
Relative to: no-protein control
Reading: higher = stronger binding
Measurement: RBNS enrichment (R)
Target sequence (chain): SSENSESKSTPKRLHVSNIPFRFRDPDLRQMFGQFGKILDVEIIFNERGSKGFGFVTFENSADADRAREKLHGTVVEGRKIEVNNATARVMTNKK
Sequence = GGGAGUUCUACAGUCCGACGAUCUACAGGAGACAGUGGUUUUAUUCGGAUUGUCUUCUGUAAUAGGUUUCAAUAAAGCUGGAUGAACUUACGUUGUUGCUGCCUGUUUCCUGGCCUAUAAAGAGGGUUGUGUUUGGAAUUCUCGGGUGCCAA; value = 4.5
Sequence = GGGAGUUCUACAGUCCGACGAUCGCCAACCCUGGGAAAUGCUAAUCAUGACCUUCACACCAAACAUUCAGAAGUAGGCUGUGUCCCAUCAGAUCAAUCUGCACCUUCCUGUGGUUGUGCAAACAUCACGGGGCUGGAAUUCUCGGGUGCCAA; value = 0.288
Sequence = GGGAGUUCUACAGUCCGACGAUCUGGGCUAGAGGUGGGAAGCUUGAGUGUUUAAUAAAAUGAGGCUUUUGGAAAGAAAGAUGAAAACGUAGAAUGUAGUGCUAAGAACGUUUCCCGUUCUCUCAUGCCUUCGCUGGAAUUCUCGGGUGCCAA; value = 1.76
Sequence = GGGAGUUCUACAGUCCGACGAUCGCAGCUCAGUGUGUGUCAGUGAUAAGAGUGUGGGAAGGCUUCAUCCUCUGCAGAGGCUGCUGAAGAAGAGUGGGUCAGCUGCAUCCUGGCUGAACCUUUAAUAGGGGACCUGGAAUUCUCGGGUGCCAA; value = 1.21
Sequence = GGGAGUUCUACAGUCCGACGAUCGCAGUGCUGCCAGCUUUUCAAGGGUCCUGACUCUGUCAGACACUUUCUGGAUUCAGCCACUAAGGACAUCUGUGGUACAAGGUGCACCUUUGCAAAUGUGUAUGAUGCCAUGGAAUUCUCGGGUGCCAA; value = 0.248
Sequence = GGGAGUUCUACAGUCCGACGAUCUUAUGUGUUAAUUUACUUUUAUUAAAAAAGUAUAGUAUAUAUAAUACAAAACAAUAACCCUUCUGGGGUUUCUUGUGGCGGUUGAAAUAGUCCCACAUGUGGUCAUCAGAUGGAAUUCUCGGGUGCCAA; value = 0.414
Sequence = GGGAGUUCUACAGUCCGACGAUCAAAGGCCCUACCAGAGGGAACACGGCCUACUGAGCGGACAGAAUGAUGCCAAAAUAUUGCUUAUGUCUCUACAUGGUAUUGUAAUGAAUAUCUGCUUUAAUAUAGCUAUCUGGAAUUCUCGGGUGCCAA; value = 0.365
Sequence = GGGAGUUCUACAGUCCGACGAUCCCAAAUAGCCUGGAGUUGUUUGUCCUACUUGUUCCAUAACCCCUAUGCUCAAGAUACUGAAGCUAUCUGUGGUAUUUCAUGUAACAUUUCUAAGAAUAAGAGCUGGCAAAUGGAAUUCUCGGGUGCCAA; value = 0.413

Block 2
Target: ABI1, truncated, D143A, DHFR fusion (Arabidopsis thaliana)
Technique: DHFR PCA, deep sequencing
Medium: yeast
Notes: methotrexate growth selection, single substitutions
Together with: (+)-ABA 0.39 µM
Relative to: wild-type fitted maximum
Reading: higher = stronger binding
Measurement: relative binding score
Starting sequence: PYL1, truncated, DHFR fusion (Arabidopsis thaliana); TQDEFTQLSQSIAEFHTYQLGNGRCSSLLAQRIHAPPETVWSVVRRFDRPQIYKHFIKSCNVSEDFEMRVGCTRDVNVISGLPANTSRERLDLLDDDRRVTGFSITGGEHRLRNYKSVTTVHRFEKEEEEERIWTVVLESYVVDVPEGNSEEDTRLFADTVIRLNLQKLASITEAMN; partner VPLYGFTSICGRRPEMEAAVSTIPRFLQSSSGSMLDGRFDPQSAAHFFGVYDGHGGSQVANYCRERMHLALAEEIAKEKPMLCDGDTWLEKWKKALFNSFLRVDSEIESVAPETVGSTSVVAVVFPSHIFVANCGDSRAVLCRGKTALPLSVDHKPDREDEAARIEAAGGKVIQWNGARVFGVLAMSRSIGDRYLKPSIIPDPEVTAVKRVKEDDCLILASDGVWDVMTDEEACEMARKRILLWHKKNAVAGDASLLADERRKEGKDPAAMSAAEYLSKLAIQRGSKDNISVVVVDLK
Variant = L91Y; value = 11.6%
Variant = E125C; value = 49.3%
Variant = L112N; value = -14.7%
Variant = P37C; value = 9.92%
Variant = D3W; value = 31.2%
Variant = L82F; value = 69.8%
Variant = T39F; value = 6.57%
Variant = T86K; value = 17.5%
Variant = Y115P; value = -10.1%
Variant = Y141C; value = 11.6%
Variant = V40K; value = -19.4%
Variant = L112V; value = -13.7%
Variant = G21A; value = 45.8%
Variant = P83M; value = -4.28%
Variant = A175D; value = 32.6%
Variant = V142Q; value = 22.5%
Variant = V70N; value = -7.02%
Variant = L169H; value = 1.21%
Variant = A35L; value = -6.93%
Variant = I52Y; value = 10.9%
Variant = L8Y; value = 26.3%

Block 3
Target: Interferon regulatory factor 3, full length, phosphomimetic (IRF3, Homo sapiens, UniProt Q14653, residues 1-427, S386D/S396D/S398D/S402D/T404D/S405D)
Sequence of UniProt Q14653 (whole entry, unmodified, looked up): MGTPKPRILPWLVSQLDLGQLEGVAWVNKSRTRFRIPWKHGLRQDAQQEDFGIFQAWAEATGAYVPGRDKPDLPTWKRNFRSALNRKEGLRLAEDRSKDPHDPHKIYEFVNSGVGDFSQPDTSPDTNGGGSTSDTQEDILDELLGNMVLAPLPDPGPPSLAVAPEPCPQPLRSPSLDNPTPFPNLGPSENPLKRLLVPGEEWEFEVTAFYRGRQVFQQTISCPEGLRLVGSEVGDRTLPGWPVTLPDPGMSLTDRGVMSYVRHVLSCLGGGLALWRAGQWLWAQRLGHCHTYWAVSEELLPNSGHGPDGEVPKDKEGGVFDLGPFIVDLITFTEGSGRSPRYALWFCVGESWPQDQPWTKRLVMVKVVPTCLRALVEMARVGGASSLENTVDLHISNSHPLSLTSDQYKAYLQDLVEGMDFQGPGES
Technique: protein-binding microarray
Molecule type: double-stranded DNA, one strand shown
Medium: in vitro
Tested at: 2540 nM top
Notes: 60-bp whole probe
Together with: salmon DNA 0.4 mg/ml
Relative to: random background probes
Reading: higher = stronger binding
Measurement: fitted relative affinity
Shared flanks, not repeated: GCCTAGCAC … GTCTTGATTCGCTTGACGCTGCTG
Sequence = GACGGACTGCTTATCCTGAGGTGCTAG; value = -0.46 z-score
Sequence = TTAGGTCTGGGACTGGGTTAGTGCTAG; value = -1.08 z-score
Sequence = TTAGATCTGAGTATCGATTAGTGCTAG; value = 0.308 z-score
Sequence = GACGGTTTCGACTTTCGGGAAGTGCTA; value = 4.13 z-score
Sequence = TCAGTTCTGCTTTGCCTACTGTGCTAG; value = 1.3 z-score
Sequence = TTAGGTTTTGACTATCGGTTAGTGCTA; value = 0.172 z-score
Sequence = GACGGTATCGACTATCGGTACGTGCTA; value = 0.825 z-score
Sequence = GACCAACTGAGTCTCGAGACGTGCTAG; value = -0.107 z-score
Sequence = TTAGGTTTCGAAACTGGGTTAGTGCTA; value = 4.86 z-score
Sequence = TTAGGACTGCTTGTCCTTTAGTGCTAG; value = -0.291 z-score
Sequence = GACGATATCAGACTGGAGAAGTGCTAG; value = 0.258 z-score
Sequence = TCATTCCTGATCTCTGGTCTTGTGCTA; value = 1.07 z-score
Sequence = ACCATTCTCGGGACTCACCTGGTGCTA; value = 3.83 z-score
Sequence = TTGGGTATCCTACTGCTTTAGTGCTAG; value = 1.27 z-score
Sequence = TCACTCTTGCTTTTTAGACTGTGCTAG; value = 1.41 z-score
Sequence = TTAGATCTCAGACTGGAATAGTGCTAG; value = 0.0732 z-score
Sequence = GGTCAGTCAGGTCACTTCTGGTGCTAG; value = -0.19 z-score
Sequence = TTTGATTTCAGACTGGATTAGTGCTAG; value = 0.754 z-score
Sequence = GACGGTATCGGTTTCGGCACGTGCTAG; value = 6.92 z-score

Block 4
Target: CCND3, cyclin fold, Cln2 fusion (human)
Technique: yeast growth competition, sequencing
Medium: yeast
Notes: weak parent motif
Relative to: not given
Reading: higher = stronger binding
Measurement: normalised enrichment score
Starting sequence: BRCA2 docking peptide (human); PSIKRNLLNEFDR; partner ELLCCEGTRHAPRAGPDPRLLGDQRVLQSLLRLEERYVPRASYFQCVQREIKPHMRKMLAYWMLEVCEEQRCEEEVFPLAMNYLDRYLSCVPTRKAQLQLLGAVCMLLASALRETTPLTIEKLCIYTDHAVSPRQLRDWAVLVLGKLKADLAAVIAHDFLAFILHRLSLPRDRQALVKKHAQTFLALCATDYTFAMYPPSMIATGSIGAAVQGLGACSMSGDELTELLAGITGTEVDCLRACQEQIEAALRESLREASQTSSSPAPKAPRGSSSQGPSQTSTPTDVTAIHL
Variant = PSIKRNLLNQFDR [E10Q]; value = -0.0114
Variant = ESIKRNLLNEFDR [P1E]; value = 0.142
Variant = PLIKRNLLNEFDR [S2L]; value = 0.203
Variant = PSITRNLLNEFDR [K4T]; value = 0.0962
Variant = CSIKRNLLNEFDR [P1C]; value = 0.212
Variant = PSIKRNLQNEFDR [L8Q]; value = 0.0362
Variant = PSIKYNLLNEFDR [R5Y]; value = 0.0403
Variant = PSIKWNLLNEFDR [R5W]; value = 0.148
Variant = PSIKRNLLNEEDR [F11E]; value = 0.0635
Variant = PSIKRNLLNEFDD [R13D]; value = 0.105
Variant = PSRKRNLLNEFDR [I3R]; value = 0.113
Variant = PSIKRNLINEFDR [L8I]; value = 0.167
Variant = PSMKRNLLNEFDR [I3M]; value = 0.00451
Variant = PSIKRNLLYEFDR [N9Y]; value = 0.154
Variant = PSIKRNLANEFDR [L8A]; value = 0.124
Variant = PSIKRNRLNEFDR [L7R]; value = 0.155
Variant = NSIKRNLLNEFDR [P1N]; value = 0.0721
Variant = PSIKTNLLNEFDR [R5T]; value = 0.0417
Variant = PSIKRNNLNEFDR [L7N]; value = -0.0192
Variant = PSICRNLLNEFDR [K4C]; value = 0.265
Variant = PPIKRNLLNEFDR [S2P]; value = 0.032
Variant = PSIKRNLLNEFCR [D12C]; value = 0.16
Variant = PSIKRNLLNEFKR [D12K]; value = 0.178

Repeated from above (block 2):
Variant = V40K; value = -19.4%
Variant = L112V; value = -13.7%
Variant = G21A; value = 45.8%
Variant = P83M; value = -4.28%
